# Published values gathered from unrelated publications.
# Compare with care: the assays were run in different laboratories. “And” joins repeats or separate records; there may be more than shown.
# Target: NUAK family SNF1-like kinase 1 (NUAK1, Homo sapiens, UniProt O60285)
# One construct used (O60285 1-661): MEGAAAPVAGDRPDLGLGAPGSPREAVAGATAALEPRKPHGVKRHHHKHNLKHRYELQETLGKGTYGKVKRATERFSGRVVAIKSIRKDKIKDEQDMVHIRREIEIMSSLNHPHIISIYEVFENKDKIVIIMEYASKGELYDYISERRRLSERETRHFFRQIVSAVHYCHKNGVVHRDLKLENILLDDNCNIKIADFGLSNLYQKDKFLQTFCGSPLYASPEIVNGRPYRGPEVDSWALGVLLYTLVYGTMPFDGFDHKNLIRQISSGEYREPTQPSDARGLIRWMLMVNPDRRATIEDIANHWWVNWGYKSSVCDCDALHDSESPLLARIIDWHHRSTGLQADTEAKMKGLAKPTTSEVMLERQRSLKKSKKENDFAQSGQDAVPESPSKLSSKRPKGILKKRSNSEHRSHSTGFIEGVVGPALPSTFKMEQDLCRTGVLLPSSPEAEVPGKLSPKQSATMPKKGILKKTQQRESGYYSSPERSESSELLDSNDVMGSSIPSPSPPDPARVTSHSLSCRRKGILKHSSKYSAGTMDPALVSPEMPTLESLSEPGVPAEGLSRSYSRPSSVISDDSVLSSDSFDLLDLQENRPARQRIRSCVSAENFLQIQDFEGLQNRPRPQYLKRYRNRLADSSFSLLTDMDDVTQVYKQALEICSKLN
Structure (SMILES),test,test system,setting,how to read,measurement,value
CNC(=O)C1CCN(c2cc(C)c(F)cc2NC(=O)c2ccc(-c3cc(O)ccc3C)c(C)c2)CC1,"binding, competition with immobilised ligand",,1 µM,,remaining binding,100%
Cc1c[nH]c2nccc(-c3ccc(C(=O)N[C@@H]4c5c(F)cc(C(F)F)cc5C[C@@H]4O)cn3)c12,"binding, competition with immobilised ligand",,3 µM,,remaining binding,42%
N[C@H]1CC[C@H](Nc2nccc(-c3cccnc3Oc3ccc(NC(=O)NC4CC4)c4ccccc34)n2)CC1,kinobead competition pulldown,HEK293/HCT116 lysate mixture,"10 µM, 1 h, 4 °C",lower = stronger competition,log2 LFQ intensity,21 and 20.9 and 20 and 21.1
Cc1cnc2nc1Nc1cccc(c1)COC/C=C/COCc1cc(ccc1OCCN1CCOCC1)N2,,,"concentration not given, gene name ARK5",,percent of control,61%
C=CC(=O)Nc1cccc(-c2cnc3[nH]cc(C(=O)NC(C)(C)C)c3n2)c1,kinase activity,,0.1 µM,,inhibition,91%
Cc1ccc(-c2c(/C=C(\C#N)C(=O)NC(C)C)n(CCCO)c3ncnc(N)c23)cc1,"cell-free assay, competition with immobilised ligand",,1 µM,,remaining binding,100%
CCN1CCN(Cc2ccc(C(=O)Nc3ccc(C)c(NCc4cnc5[nH]ccc5c4OC)c3)cc2C(F)(F)F)CC1,"binding, competition with immobilised ligand",,1 µM,,remaining binding,100%
COc1cc(Nc2nccc(-c3cnn4nc(OC)ccc34)n2)cc(C(F)(F)F)c1,"binding, competition with immobilised ligand",,1 µM,,remaining binding,100%
C=CC(=O)Nc1cc(-c2nn(C3CCN(CCNC(=O)[C@H](C)CCC45CC6CC(CC(C6)C4)C5)CC3)c3ncnc(N)c23)ccc1Oc1ccccc1,"inhibitor, KiNativ profiling",biochemical,2 µM,,inhibition,8.2%
Cc1cccc(O[C@H]2CCC[C@@H](C(C)CNCc3ccncc3)C2)c1 (relative stereo),"kinase activity, kinome panel screening",,1 µM,,inhibition,-4%
NC(=O)C[C@H]1CCc2sc3ncnc(O[C@H]4CC[C@H](N5CCOCC5)CC4)c3c21,"enzyme activity, inhibitor",,10 µM,,inhibition,7%
CNC(=O)C[C@H](Cc1ccc(C#N)cc1)NC(=O)c1cc(-c2ccc(CN[C@H](C)c3ccc(C)cc3)o2)ccc1Cl,"enzyme activity, inhibitor",,1 µM,,activity vs control,87%
CCn1cc(C(=O)O)c(=O)c2c(N)c(F)c(NC3CCCCC3)cc21,kinase activity,,"0.1 µM, with: ATP at Km",,inhibition,-4.3%
C=CC(=O)N1CCCC(n2c(=O)c3ncccc3n(Cc3ccc(Oc4ccccc4)cc3)c2=O)C1 (stereo not shown),"cell-free assay, competition with immobilised ligand",,1 µM,,remaining binding,100%
CNC1C[S+]2CC[S+]3CC[S+](C1)[Ru-4]321([N]=C=S)[n]2c3ccc(OC)cc3c3c4c(c5cc(F)c[n+]1c5c32)C(=O)NC4=O (stereo not shown),KinomeScan,,0.1 µM,baseline: untreated,remaining binding,85%
Nc1ncc2c(n1)-c1c([nH]c3ccc(C4=CCOCC4)cc13)CCC2,"binding, competition with immobilised ligand",,1 µM,,remaining binding,100%

# Some of these lines once more:
Structure (SMILES),test,test system,setting,how to read,measurement,value
Cc1cnc2nc1Nc1cccc(c1)COC/C=C/COCc1cc(ccc1OCCN1CCOCC1)N2,,,"concentration not given, gene name ARK5",,percent of control,61%
CNC(=O)C1CCN(c2cc(C)c(F)cc2NC(=O)c2ccc(-c3cc(O)ccc3C)c(C)c2)CC1,"binding, competition with immobilised ligand",,1 µM,,remaining binding,100%
COc1cc(Nc2nccc(-c3cnn4nc(OC)ccc34)n2)cc(C(F)(F)F)c1,"binding, competition with immobilised ligand",,1 µM,,remaining binding,100%
